{"data": "Measurements from different studies", "note": "Each line is one published result; not all experiments were run side by side. Several values in a cell are separate wells, animals, samples, runs or records. Numbers after ± are the reported error."}
{"SMILES": "COc1ccc([C@@H]2CC(=O)c3c(O)cc(O[C@@H]4O[C@H](CO[C@@H]5O[C@@H](C)[C@H](O)[C@@H](O)[C@H]5O)[C@@H](O)[C@H](O)[C@H]4O)cc3O2)cc1O", "test system": "rat plasma", "conditions": "15.62 ng/mL, three freeze-thaw cycles", "endpoint": "measured concentration", "value": "17.1 ± 0.38 ng/mL"}
{"SMILES": "N=C(N)NCCC[C@H](NC(=O)[C@H](CCCNC(=N)N)NC(=O)[C@H](CCCNC(=N)N)NC(=O)[C@H](CCCNC(=N)N)NC(=O)[C@H](CCCNC(=N)N)NC(=O)[C@H](CCCNC(=N)N)NC(=O)[C@H](CCCNC(=N)N)NC(=O)[C@H](CCCNC(=N)N)NC(=O)[C@H](CCCNC(=N)N)NC(=O)[C@H](CCCNC(=N)N)NC(=O)[C@H](CCCNC(=N)N)NC(=O)[C@H](CCCNC(=N)N)NC(=O)[C@H](CCCNC(=N)N)NC(=O)[C@H](CCCNC(=N)N)NC(=O)[C@H](CCCNC(=N)N)NC(=O)[C@H](CCCNC(=N)N)NC(=O)[C@H](CCCNC(=N)N)NC(=O)[C@H](CCCNC(=N)N)NC(=O)[C@H](CCCNC(=N)N)NC(=O)[C@H](CCCNC(=N)N)NC(=O)c1ccc2c(c1)C(=O)OC21c2ccc(O)cc2Oc2cc(O)ccc21)C(=O)O", "test system": "bovine cartilage explants", "conditions": "30 µM, 24 h, added: 1 x PBS", "endpoint": "retained fraction", "value": "~99%"}
{"SMILES": "CC[C@H](C)[C@H](NC(=O)[C@H](N)Cc1ccc(O)cc1)C(=O)N[C@H]1CSSC[C@@H](C(=O)N(C)[C@H](C(N)=O)[C@@H](C)CC)NC(=O)[C@H](CCCNC(=N)N)NC(=O)[C@H](Cc2c[nH]cn2)NC(=O)[C@H](C)NC(=O)CN(C)C(=O)[C@H](Cc2c[nH]c3ccccc23)NC(=O)[C@H](CC(=O)O)NC(=O)[C@H](CCC(N)=O)NC(=O)[C@H](Cc2cn(C)c3ccccc23)NC(=O)[C@H](C(C)C)NC1=O", "test": "UPLC-ESI-MS", "test system": "human plasma", "conditions": "0.36 µg/mL, 48 h, 4 °C, autosampler after SPE", "endpoint": "recovery", "value": "100.5 ± 0.6%"}
{"SMILES": "COc1cc2c(cc1OC)CN(CCCCn1ccc3cc(OCC[18F])ccc31)C2", "test system": "male ICR mice", "conditions": "intravenous, 280 kBq, 120 min post-injection", "endpoint": "pancreas uptake", "value": "43.4 ± 6.87 %ID/g"}
{"SMILES": "COC(=O)C(c1ccccc1Cl)N1CCC(SCC(=O)c2cccc(OC)c2)C(=CC(=O)O)C1 (stereo not drawn)", "test": "LC-MS/MS", "test system": "human plasma", "conditions": "2 ng/mL, after freeze-thaw cycles", "endpoint": "measured concentration", "value": "1.9 ± 0.2 ng/mL"}
{"SMILES": "COc1c2c(cc3oc(COC4OC(CO)C(O)C(O)C4O)cc(=O)c13)OC(C(C)(C)O)C2 (stereo not drawn)", "test system": "simulated gastric fluid with pepsin", "conditions": "2 h, pH 1.2, 37 °C", "endpoint": "transformation rate", "value": "1.55%"}
{"SMILES": "O=C([O-])CN1CCN(CC(=O)[O-])CCN(CC(=O)NCC2CCC(C(=O)NC(Cc3ccc4ccccc4c3)C(=O)NCCCCC(NC(=O)NC(CCC(=O)O)C(=O)O)C(=O)O)CC2)CCN(CC(=O)[O-])CC1.[44Sc+3] (stereo not drawn)", "test": "PET/CT dosimetry, OLINDA/EXM", "test system": "human, spleen", "endpoint": "residence time", "value": "0.018 h and 0.086 h and 0.083 h"}
{"SMILES": "OCc1cn(Cc2ccc(-c3noc(-c4ccc(OCC[18F])c(C(F)(F)F)c4)n3)cc2)nn1", "test system": "female Lewis rat, lung", "conditions": "intravenous, 60 min", "endpoint": "tissue uptake", "value": "1.67 ± 0.09 %ID/g"}
{"SMILES": "COCCOCCOCCOc1ccc(/C=C/C2=[N+]3C(=C(c4cc(OC)cc(OC)c4)c4c(C)c(I)c(/C=C/c5ccc(OCCOCCOCCOC)cc5)n4[B-]3(F)F)C(C)=C2I)cc1", "test system": "DMSO", "endpoint": "Stokes shift", "value": "627 cm⁻¹"}
{"SMILES": "CC(C)C[C@@H](CN1CCC[C@H]1C(N)=O)NC(=O)[C@H](Cc1c[nH]cn1)NC(=O)CNC(=O)[C@@H](NC(=O)[C@H](C)NC(=O)[C@H](Cc1c[nH]c2ccccc12)NC(=O)[C@H](CCC(N)=O)NC(=O)[C@@H](Cc1ccccc1)NC(=O)COCC(=O)Nc1ccc(CNC(=O)CN2CCN(CC(=O)O)CCN(CC(=O)O)CCN(CC(=O)O)CC2)cc1)C(C)C [gallium-68 labelled]", "test": "radio-HPLC", "test system": "mice, plasma", "conditions": "5 min post-injection", "endpoint": "intact compound", "value": "96.3% and > 95%"}
{"SMILES": "CCCC[C@H](NC(C)=O)C(=O)N[C@H]1CC(=O)NCCCC[C@@H](C(=O)N[C@@H](C(=O)N2CCC[C@@H]2C(N)=O)C(C)C)NC(=O)[C@H](Cc2c[nH]c3ccccc23)NC(=O)[C@H](CCCN=C(N)N)NC(=O)[C@@H](Cc2ccc3ccccc3c2)NC(=O)[C@@H]2CCCN2C1=O", "test system": "healthy dogs, plasma", "conditions": "subcutaneous, 2.25 mg/kg per day, day 5, 12 h post-dose, median", "endpoint": "plasma histamine", "value": "15.9 ng/mL"}
{"SMILES": "Cc1ccc(OCC(=O)O)cc1", "test system": "Sprague-Dawley rat, male, plasma", "conditions": "oral gavage, 10 mg/kg of parent drug", "endpoint": "t1/2", "value": "1.34 h"}
{"SMILES": "CCOc1c(C(C)(C)O)sc2cnc(Nc3ccc(N4CCC(N5CC6(COC6)C5)CC4)cc3OC)nc12", "test system": "New Zealand rabbit, male, isolated Purkinje fibres", "conditions": "30 µM, 45 min, pacing 1 Hz", "endpoint": "APD90 change", "value": "-4 ± 2%"}
{"SMILES": "CC(C)(O)c1ncc([S@](N)(=O)=NC(=O)Nc2c3c(cc4c2CCC4)CCC3)s1", "test system": "healthy human volunteers, plasma", "conditions": "oral, 100 mg single dose, fasted, spray-dried dispersion", "endpoint": "dose-normalised AUC(0-t)", "value": "985 ng·h/mL/mg"}
{"SMILES": "COC(=O)CN1CCN(CC(=O)OC)CCN(Cc2cc(-c3nc4ccccc4s3)cc(OC)c2O)CC1", "test": "UV-Vis pH titration", "conditions": "25 °C, ionic strength 0.1 M NaCl", "endpoint": "pKa4", "value": 11.3}
{"SMILES": "COc1c(Cl)ccc(Cl)c1C(=O)OC[C@H]1OC(O)[C@H](O)[C@@H]1O (stereo partly drawn)", "test": "HPLC", "test system": "water", "conditions": "28 days", "endpoint": "dicamba formed", "value": "14.2%"}
{"SMILES": "Cn1c(=O)oc2ccc(-c3ccc(CC(C#N)NC(=O)C4CNCCCO4)c(F)c3)cc21 (stereo not drawn)", "test system": "human volunteers, plasma", "conditions": "40 mg single dose, fasted, geometric mean", "endpoint": "AUC(0-t)", "value": "3290 ng·h/mL"}
{"SMILES": "C=CC(=C)CC[C@]1(C)[C@H](C)C[C@H](OC(=O)CCCCCCC)[C@@]23C(=C[C@H](OC(C)=O)C[C@@H]12)[C@@H](OC(C)=O)O[C@H]3OC(C)=O", "test": "haemolysis", "conditions": "100 µM", "endpoint": "haemolysis", "value": "12.2%"}
{"SMILES": "CNC(=O)N[C@]1(C)CCC[C@@]2(C)C3CC[C@@]4(C)C[C@]3(CCC21)CC4=O (single isomer, unassigned)", "test system": "processed rat plasma", "conditions": "400 ng/mL, 24 h, room temperature, autosampler stability", "endpoint": "measured concentration", "value": "445 ± 27.3 ng/mL"}
{"SMILES": "CCCC[C@H](NC(=O)[C@H](CC(C)C)N(C)C(=O)CNC(=O)[C@@H](NC(=O)[C@H](Cc1ccccc1)NC(=O)[C@H](CCCCN)NC(=O)[C@@H](N)CC(=O)O)C(C)C)C(N)=O", "test system": "anesthetized Gottingen minipig", "conditions": "subcutaneous, 30 µg/kg", "how to read": "reference: baseline", "endpoint": "mean arterial pressure", "value": "-5.98 ± 4.75%"}
{"SMILES": "Cc1cc2c(cc1C1(c3ncc(C(=O)O)cn3)CC1)C(C)(C)CCC2(C)C", "test system": "Sprague-Dawley rat, male", "conditions": "oral, 100 mg/kg, 2 h, sesame oil vehicle", "endpoint": "blood triglycerides", "value": "82 ± 16.5 mg/dL"}
{"SMILES": "CCOc1ccc2c(c1)C(C)=CC(C)(C)N2c1cc(OCC)cc2c1NC(C)(C)C=C2C", "test": "LC-MS/MS", "test system": "cattle, Holstein, muscle", "conditions": "oral, 50 mg/kg complete feed of ethoxyquin, 42 days, highest value", "endpoint": "residue concentration", "value": "5.8 ng/g"}
{"SMILES": "CC(C)c1cnc(-c2cc(Cl)ccc2F)cc1Nc1ccncc1C(=O)NC(CO)CO", "test": "item: Pyrexia", "test system": "solid tumour patients", "conditions": "oral, dose not given, phase I monotherapy", "endpoint": "treatment-related serious adverse events", "value": "2.4%"}
{"SMILES": "CCCC(CCC)NC(=O)c1ccc(O)c(O)c1", "test": "LC-MS extracted ion chromatogram", "test system": "Sprague-Dawley rat, male and female, pooled plasma", "conditions": "oral, 200 mg/kg, 1 h", "endpoint": "peak area", "value": "653000 cps"}
{"SMILES": "COC(=O)c1ccc(CCc2cc3cc4nc(c(OC)c5[nH]c(cc6nc(cc2[nH]3)CC6(C)C)cc5CCCNC(=O)OC(C)(C)C)C(=O)C4(C)C)cc1", "test system": "DMF", "conditions": "room temperature", "endpoint": "Qy emission maximum", "value": "686 nm"}
{"SMILES": "C=CC(=O)Nc1cc(Nc2nccc(-c3cn(C4CC4)c4ccccc34)n2)c(OC)cc1N(C)CCNC", "test": "radio-HPLC", "test system": "human male, urine", "conditions": "oral, 110 mg, 0 to 48 h, sample holds 2.97% dose", "how to read": "reference: sample radioactivity", "endpoint": "share of radioactivity", "value": "26.7%"}
{"SMILES": "N=C(N)NCCC[C@@H]1NC(=O)[C@H](Cc2c[nH]c3ccccc23)NC(=O)[C@@H](CC2CCCCC2)NC(=O)[C@@H]2CCCN2C(=O)[C@@H](NC(=O)CCc2ccccc2)CCCNC1=O", "test": "two-compartment model", "test system": "C57BL/6J mouse, plasma brain", "conditions": "oral, 1 mg/kg single dose", "endpoint": "K21", "value": "2.88 h⁻¹"}
{"SMILES": "NCC(=O)N1CCC[C@H]1C(=O)N1C[C@H](O)C[C@H]1C(=O)O", "test": "potentiometric titration", "test system": "water", "conditions": "40 °C, 0.15 mol/dm3 NaCl", "endpoint": "pKa3", "value": 7.18}
{"SMILES": "C#CCOc1ccc(/C=C2\\SC(=O)N(CC(=O)NCc3ccccc3)C2=O)cc1", "test": "inverse Kirkwood-Buff integrals", "test system": "binary solvent mixture", "conditions": "298.15 K, mole fraction x1 0.85", "endpoint": "Kirkwood-Buff integral G1,3", "value": "-259 cm³/mol"}
{"SMILES": "CCCCCC(O)C=CC1OC2OC(C1CC=CCCCC(=O)O)C2(F)F (stereo not drawn)", "test system": "50 mM HCl buffer", "conditions": "pH 1.25, 23 °C", "endpoint": "hydrolysis rate constant", "value": "0.00018 s⁻¹"}
{"note": "Repeated from above:"}
{"SMILES": "CCOc1c(C(C)(C)O)sc2cnc(Nc3ccc(N4CCC(N5CC6(COC6)C5)CC4)cc3OC)nc12", "test system": "New Zealand rabbit, male, isolated Purkinje fibres", "conditions": "30 µM, 45 min, pacing 1 Hz", "endpoint": "APD90 change", "value": "-4 ± 2%"}
{"SMILES": "CC(C)(O)c1ncc([S@](N)(=O)=NC(=O)Nc2c3c(cc4c2CCC4)CCC3)s1", "test system": "healthy human volunteers, plasma", "conditions": "oral, 100 mg single dose, fasted, spray-dried dispersion", "endpoint": "dose-normalised AUC(0-t)", "value": "985 ng·h/mL/mg"}
{"SMILES": "COC(=O)CN1CCN(CC(=O)OC)CCN(Cc2cc(-c3nc4ccccc4s3)cc(OC)c2O)CC1", "test": "UV-Vis pH titration", "conditions": "25 °C, ionic strength 0.1 M NaCl", "endpoint": "pKa4", "value": 11.3}
{"SMILES": "COc1c(Cl)ccc(Cl)c1C(=O)OC[C@H]1OC(O)[C@H](O)[C@@H]1O (stereo partly drawn)", "test": "HPLC", "test system": "water", "conditions": "28 days", "endpoint": "dicamba formed", "value": "14.2%"}
{"SMILES": "Cn1c(=O)oc2ccc(-c3ccc(CC(C#N)NC(=O)C4CNCCCO4)c(F)c3)cc21 (stereo not drawn)", "test system": "human volunteers, plasma", "conditions": "40 mg single dose, fasted, geometric mean", "endpoint": "AUC(0-t)", "value": "3290 ng·h/mL"}
